Measured values of several laboratories.
A part holds a random share of what one study measured. Substitutions count along the parent as printed.

Series 1 — technique: RNA Bind-n-Seq; molecule type: RNA; matrix: in vitro; tested at: 365 nM; relative to: no-protein control; reading: higher = stronger binding
Target: RNA binding protein fox-1 homolog 2, RRM domain, GST-SBP tag (RBFOX2, Homo sapiens, UniProt O43251-10, residues 100-194)
Setting: natural RNA segment, single round, ends assumed
All sequences stand within: GGGAGUUCUACAGUCCGACGAUC … UGGAAUUCUCGGGUGCCAA
Construct (chain): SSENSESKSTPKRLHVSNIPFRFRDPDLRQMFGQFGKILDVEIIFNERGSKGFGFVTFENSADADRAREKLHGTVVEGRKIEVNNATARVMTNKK
`AUUCAGGCUGCUUGGGAUAAAGAUGCAAGGACCAGGACUCCCUCCUCACCUCUGGACUGGCUAGAGUCCUCACUCCCAGUCCAAAUGUCCUCCAGAAGCCUCUGGCUAGA` — result for “RBNS enrichment (R)”: 0.642.
`AACCAGCUGCUGGUGUAAUGUACAGUUAUAUUUGUCUAUAAAUGGAGCUGUUUAUGGCAAUUUAAUACCAUUCUCUUUGUAAAGUGAAUAAAUAUUCAUCUUUACCCAGU`: “RBNS enrichment (R)” 0.447.
`UACUUCACUCUUACCUAGCACGCUGUCUUCUCAUUGCUUUGGGGGAGGGAGGGUCUCUCUGCUGGCACUGUCUAACUUGCUUACCUGCUGACUUUGCAGUUUGCUUGUGC`: “RBNS enrichment (R)” 0.648.
Under “RBNS enrichment (R)”, `AGUGUAUUCUGAUGUCUUAAGUGGUCAGAAAAGAGCACUAAGAAAUGGAUCUAUAUAACCAAUGAGUUGAUUCUCUUAAAAAAAUAAUAAACCCCCCUCUAUUAUGUGGG` is recorded as 0.492.
`GUUGAACCUUGCAGUCCUUUCUCUACGCCCGUGGAUUUUGUGGAAACACUUUGCAAUCUCUUUGUCUUUUUUUUUUUUACCAGAACUAGUUACAUUGGAAUGCUUACUGU`: “RBNS enrichment (R)” 0.249.
For `UAGACUUGGGUUGUGGGAACAGUUGAUAAAGUUCUGGAAAGAUGCCAUUCAUUCUACAGUCUUCCCAAGGUGUCCUAGUCUCUCCCAGGCCCCUGUGAUUUUCUCACAUA`, “RBNS enrichment (R)” read 0.242.
For `AAACACAGACAGAUCCAAGGAAAUGUCUCUUUAUAAUGUUCUUAGGAUGGACUAGACCCAUAAAUGUGCCAUGAAUCAAAAUAUUAAUAAUUUGAAAGCUUUCAUGCUGU`, “RBNS enrichment (R)” read 0.541.
`CUUCUCUCUCUGGUCAGGCCCACUGCAGAGAUGGUGGUGAGCACAUCUGGGAGGCUGGUCUCCCUCCAGCUGGAAUUGCUGCUCUCUGAGGGAGAGGCUGUGGUGGCUGU` — result for “RBNS enrichment (R)”: 0.485.

Series 2 — target: CCND1, cyclin fold, Cln2 fusion (human); technique: yeast growth competition, sequencing; matrix: yeast; setting: weak parent motif; relative to: not given; reading: higher = stronger binding
Starting sequence: RB1 docking peptide (human); PKPLKKLRFDIEG
`K6N` — result for “normalised enrichment score”: -0.11.
For `R8S`, “normalised enrichment score” read 0.143.
`R8Q` — result for “normalised enrichment score”: -0.141.
`K2C`: “normalised enrichment score” 0.426.
For `L7T`, “normalised enrichment score” read -0.72.
`G13R` — result for “normalised enrichment score”: 0.708.
`G13D`: “normalised enrichment score” 0.176.
`L7V` — result for “normalised enrichment score”: 0.212.
`F9I` — result for “normalised enrichment score”: 0.49.

Series 3 — technique: protein binding microarray; molecule type: double-stranded DNA, one strand shown; matrix: in vitro; tested at: not given; relative to: not given; reading: higher = stronger binding
Target: Histone acetyltransferase KAT6A, winged helix 2, GST fusion (KAT6A, Homo sapiens, UniProt Q92794, residues 85-181)
Setting: 8-mer, flanks averaged, mean of 2 arrays, mostly near background
Residues (chain): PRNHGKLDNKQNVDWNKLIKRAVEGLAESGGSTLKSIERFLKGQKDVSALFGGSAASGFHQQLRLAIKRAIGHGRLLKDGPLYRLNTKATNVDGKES
`ATAGAGTA` gave an E-score of -0.0594.
With `CATGCTGG` the E-score was -0.0726.
With `GATTCAAA` the E-score was -0.106.
For `GACGGCTA`, the E-score was 0.00639.
For `CGTCTTTC`, the E-score was -0.0707.
For `CTGGATGA`, the E-score was -0.0357.
With `ATTACTTC` the E-score was -0.167.
With `ACAGCGCT` the E-score was -0.067.

Mixed results
The fold induction of `PhoQ, residues 284 288 289 292 302 303 NLSRDF` is reported as 10.3 (PhoP, residues 12 14 15 18 19 TQALL (Escherichia coli, UniProt P23836); Sort-seq, item: YFP reporter; E. coli; PhoQ-PhoP variant library, added: 10 µM Mg2+; relative to: high Mg2+ state, higher = stronger signaling).

Repeated from above (series 2):
`L7V` — result for “normalised enrichment score”: 0.212.
`F9I` — result for “normalised enrichment score”: 0.49.
